# Results pooled from the literature.
# Lines come from different studies, so protocols differ. Values joined by “and” are separate records of one study, mostly repeats; a detail may differ. ± gives the spread as reported.
# B1: RSPO4/IgG1 Fc RSPO4 32-137 Q65R/N297Q; CPT2 conjugated via azide click; chain GGNCTGCIICSEENGCSTCQQRLFLFIRREGIRRYGKCLHDCPPGYFGIRGQEVNRCKKCGATCESCFSQDFCIRCKRQFYLYKGKCLPTCPPGTLAHQNTRECQGGGGGSGGGGSGGGGS
# Sequence of UniProt Q64663 (whole entry, unmodified, looked up): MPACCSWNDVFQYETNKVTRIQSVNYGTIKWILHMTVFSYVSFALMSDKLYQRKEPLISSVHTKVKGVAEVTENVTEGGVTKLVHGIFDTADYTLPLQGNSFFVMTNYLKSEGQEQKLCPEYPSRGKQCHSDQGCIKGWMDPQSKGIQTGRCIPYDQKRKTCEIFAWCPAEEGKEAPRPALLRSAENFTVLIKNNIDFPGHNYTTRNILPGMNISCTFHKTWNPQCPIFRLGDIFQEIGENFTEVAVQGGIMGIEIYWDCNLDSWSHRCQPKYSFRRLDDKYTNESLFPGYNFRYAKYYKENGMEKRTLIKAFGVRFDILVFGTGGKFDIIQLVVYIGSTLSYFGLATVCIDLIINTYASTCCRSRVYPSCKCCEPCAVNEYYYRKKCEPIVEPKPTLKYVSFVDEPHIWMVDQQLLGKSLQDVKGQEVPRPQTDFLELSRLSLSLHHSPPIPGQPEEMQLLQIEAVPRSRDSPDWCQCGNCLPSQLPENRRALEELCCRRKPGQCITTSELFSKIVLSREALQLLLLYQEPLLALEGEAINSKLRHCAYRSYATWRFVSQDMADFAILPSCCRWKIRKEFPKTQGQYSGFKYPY
# Sequence of UniProt P32245 (whole entry, looked up): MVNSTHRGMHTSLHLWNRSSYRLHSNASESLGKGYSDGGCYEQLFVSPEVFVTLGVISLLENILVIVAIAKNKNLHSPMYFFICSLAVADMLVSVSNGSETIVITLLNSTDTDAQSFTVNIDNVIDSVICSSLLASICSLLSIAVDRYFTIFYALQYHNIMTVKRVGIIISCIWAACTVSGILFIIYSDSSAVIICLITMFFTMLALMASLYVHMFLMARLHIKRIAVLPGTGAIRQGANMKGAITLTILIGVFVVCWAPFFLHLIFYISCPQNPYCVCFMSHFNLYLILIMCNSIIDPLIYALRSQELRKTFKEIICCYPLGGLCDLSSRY
# Sequence of UniProt Q99848 (whole entry, looked up): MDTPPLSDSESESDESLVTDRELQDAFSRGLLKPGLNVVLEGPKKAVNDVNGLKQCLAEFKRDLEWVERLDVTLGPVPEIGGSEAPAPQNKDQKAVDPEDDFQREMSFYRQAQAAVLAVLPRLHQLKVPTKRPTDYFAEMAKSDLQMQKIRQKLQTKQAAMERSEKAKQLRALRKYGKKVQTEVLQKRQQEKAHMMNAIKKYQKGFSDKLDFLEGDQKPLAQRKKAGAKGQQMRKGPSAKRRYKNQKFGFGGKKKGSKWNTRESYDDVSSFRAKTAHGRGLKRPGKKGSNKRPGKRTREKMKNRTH
# Sequence of UniProt Q12749 (whole entry, looked up): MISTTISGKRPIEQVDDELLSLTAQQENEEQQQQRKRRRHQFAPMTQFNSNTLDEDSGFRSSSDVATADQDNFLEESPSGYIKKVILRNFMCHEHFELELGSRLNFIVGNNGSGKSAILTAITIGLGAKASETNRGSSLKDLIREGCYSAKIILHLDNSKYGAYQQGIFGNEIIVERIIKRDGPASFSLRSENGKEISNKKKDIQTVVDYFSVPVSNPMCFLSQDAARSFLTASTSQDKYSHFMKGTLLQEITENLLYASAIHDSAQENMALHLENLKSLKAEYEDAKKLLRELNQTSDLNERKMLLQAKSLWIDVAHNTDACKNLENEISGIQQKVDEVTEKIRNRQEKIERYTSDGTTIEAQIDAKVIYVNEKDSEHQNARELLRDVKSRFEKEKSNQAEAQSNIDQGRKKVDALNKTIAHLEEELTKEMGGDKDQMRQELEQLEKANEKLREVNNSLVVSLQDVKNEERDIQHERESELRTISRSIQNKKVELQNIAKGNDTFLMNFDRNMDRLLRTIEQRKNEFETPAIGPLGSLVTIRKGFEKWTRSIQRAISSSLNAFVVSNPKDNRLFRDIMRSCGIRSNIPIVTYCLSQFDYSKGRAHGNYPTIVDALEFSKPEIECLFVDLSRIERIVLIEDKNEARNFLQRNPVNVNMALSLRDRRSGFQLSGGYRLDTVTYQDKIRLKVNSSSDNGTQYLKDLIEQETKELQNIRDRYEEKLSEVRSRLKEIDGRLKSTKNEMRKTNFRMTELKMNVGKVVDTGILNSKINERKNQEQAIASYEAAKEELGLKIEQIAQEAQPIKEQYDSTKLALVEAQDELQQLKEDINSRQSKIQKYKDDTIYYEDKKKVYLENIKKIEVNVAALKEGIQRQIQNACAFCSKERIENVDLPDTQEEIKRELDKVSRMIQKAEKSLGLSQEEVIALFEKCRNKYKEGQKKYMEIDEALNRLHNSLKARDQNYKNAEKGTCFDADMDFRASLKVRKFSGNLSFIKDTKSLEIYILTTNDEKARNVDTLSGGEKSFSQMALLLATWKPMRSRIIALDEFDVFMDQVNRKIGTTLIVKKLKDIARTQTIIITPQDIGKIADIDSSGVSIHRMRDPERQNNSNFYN
# Sequence of UniProt Q8TDN6 (whole entry, looked up): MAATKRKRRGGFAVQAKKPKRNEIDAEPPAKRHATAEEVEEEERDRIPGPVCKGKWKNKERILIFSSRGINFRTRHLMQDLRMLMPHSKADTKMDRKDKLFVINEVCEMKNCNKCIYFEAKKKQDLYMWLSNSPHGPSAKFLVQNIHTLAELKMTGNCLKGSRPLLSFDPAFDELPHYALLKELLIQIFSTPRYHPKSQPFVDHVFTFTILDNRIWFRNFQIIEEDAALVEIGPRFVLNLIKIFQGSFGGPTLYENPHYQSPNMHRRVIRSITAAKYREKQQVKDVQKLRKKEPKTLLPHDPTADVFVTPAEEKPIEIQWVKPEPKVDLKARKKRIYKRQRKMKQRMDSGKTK
# Sequence of UniProt Q64455 (whole entry, looked up): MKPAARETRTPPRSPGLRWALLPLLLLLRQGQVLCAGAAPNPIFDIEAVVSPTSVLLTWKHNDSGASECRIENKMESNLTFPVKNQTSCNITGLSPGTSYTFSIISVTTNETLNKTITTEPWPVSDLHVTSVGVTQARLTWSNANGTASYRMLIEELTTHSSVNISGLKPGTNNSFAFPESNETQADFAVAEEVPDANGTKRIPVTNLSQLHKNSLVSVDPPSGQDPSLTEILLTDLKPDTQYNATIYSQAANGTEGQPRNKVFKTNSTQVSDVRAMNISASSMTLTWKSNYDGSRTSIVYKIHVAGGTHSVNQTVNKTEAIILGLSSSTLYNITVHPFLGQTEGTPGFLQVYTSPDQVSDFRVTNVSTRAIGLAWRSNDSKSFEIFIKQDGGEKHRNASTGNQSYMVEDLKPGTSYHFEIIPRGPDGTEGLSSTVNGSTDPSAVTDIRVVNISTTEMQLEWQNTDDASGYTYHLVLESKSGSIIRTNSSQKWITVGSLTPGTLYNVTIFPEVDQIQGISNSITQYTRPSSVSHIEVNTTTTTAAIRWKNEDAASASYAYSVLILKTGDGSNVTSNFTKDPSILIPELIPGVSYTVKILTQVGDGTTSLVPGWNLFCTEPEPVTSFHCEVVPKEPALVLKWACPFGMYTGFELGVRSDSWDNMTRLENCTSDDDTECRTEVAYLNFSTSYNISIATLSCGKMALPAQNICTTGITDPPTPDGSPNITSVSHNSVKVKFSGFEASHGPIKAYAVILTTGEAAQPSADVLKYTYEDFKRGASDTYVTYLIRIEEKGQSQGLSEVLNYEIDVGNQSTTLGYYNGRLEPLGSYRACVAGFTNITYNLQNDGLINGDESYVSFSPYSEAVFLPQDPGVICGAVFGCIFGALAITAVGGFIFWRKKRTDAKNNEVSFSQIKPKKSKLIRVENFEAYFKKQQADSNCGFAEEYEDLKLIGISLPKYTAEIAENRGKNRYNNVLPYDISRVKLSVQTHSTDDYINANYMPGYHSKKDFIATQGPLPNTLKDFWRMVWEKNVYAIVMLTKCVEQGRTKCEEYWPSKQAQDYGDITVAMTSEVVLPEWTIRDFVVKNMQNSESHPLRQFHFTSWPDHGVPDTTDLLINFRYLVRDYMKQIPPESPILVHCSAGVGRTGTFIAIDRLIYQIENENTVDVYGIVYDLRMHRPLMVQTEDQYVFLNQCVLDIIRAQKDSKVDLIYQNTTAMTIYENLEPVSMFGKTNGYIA
# Sequence of UniProt P84090 (whole entry, unmodified, looked up): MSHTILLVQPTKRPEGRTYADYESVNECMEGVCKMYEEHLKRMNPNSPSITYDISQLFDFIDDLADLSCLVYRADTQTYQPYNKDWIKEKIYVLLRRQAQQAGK
# Sequence of UniProt P43124 (whole entry, looked up): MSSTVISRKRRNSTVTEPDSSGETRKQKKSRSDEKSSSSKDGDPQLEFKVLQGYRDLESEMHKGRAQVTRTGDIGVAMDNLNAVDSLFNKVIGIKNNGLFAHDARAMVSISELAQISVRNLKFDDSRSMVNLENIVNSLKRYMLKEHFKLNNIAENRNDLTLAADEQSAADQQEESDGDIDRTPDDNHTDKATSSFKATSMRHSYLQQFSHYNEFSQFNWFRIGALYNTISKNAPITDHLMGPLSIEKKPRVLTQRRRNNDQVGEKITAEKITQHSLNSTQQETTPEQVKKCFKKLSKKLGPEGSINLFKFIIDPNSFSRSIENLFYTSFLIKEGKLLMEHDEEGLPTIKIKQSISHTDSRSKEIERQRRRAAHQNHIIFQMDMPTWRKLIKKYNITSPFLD
# Sequence of UniProt P01009 (whole entry, looked up): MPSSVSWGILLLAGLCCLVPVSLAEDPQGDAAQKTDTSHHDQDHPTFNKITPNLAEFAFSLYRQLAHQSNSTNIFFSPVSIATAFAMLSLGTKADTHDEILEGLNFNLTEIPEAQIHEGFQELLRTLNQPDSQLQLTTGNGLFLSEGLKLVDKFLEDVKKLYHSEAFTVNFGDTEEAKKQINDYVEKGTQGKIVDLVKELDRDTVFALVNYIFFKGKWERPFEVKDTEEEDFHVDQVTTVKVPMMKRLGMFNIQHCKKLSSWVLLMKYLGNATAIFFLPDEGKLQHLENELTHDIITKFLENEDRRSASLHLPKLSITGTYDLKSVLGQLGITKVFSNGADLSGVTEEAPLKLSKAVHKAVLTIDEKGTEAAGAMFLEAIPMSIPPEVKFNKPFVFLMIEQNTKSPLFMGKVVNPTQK
Substance,tested on,test,system,setting,scale,quantity,value
colistin,Pseudomonas aeruginosa,broth microdilution,clinical isolate RKI-No_190/15,,,MIC,1 µg/mL
human ME2 P78D,,"enzyme activity, activator, NADH absorbance",recombinant enzyme,"range over 0 to 5 mM, pH 7.4",baseline: wild type,activation fold,0.9
Polymyxin B,,"untargeted LC-MS metabolomics, measured: 1-methylhistamine","Sprague-Dawley rat, right cerebral cortex","intracerebroventricular, 0.75 mg/kg, 1 h",baseline: NaCl control,log2 fold change,-3.6
"SERPINA1 (Homo sapiens, UniProt P01009)","Thrombin mature, plasma-derived (Homo sapiens)","inhibition kinetics, amidolytic activity",,,,second-order inhibition rate constant,40 M⁻¹ s⁻¹
"PRTARHAPAVRKFSPDLKLLKDVKISVSFTE (DGCR8(96-126), SUMO-tagged)","Enhancer of rudimentary homolog (Homo sapiens, UniProt P84090, F60A/L64A)",ITC,peptide,"293 K, ERH F60A/L64A mutant, with: DGCR8 peptide",,Kd,> 100000 nM
"NSE4 (Saccharomyces cerevisiae, UniProt P43124)","SMC6 (Saccharomyces cerevisiae, UniProt Q12749)",cross-linking MS,,hits only,,interaction screen,cross-linked
11-deoxycorticosterone,CYP11B2 (human),"substrate binding, stopped-flow global kinetic fitting",purified enzyme,"3-state induced fit model, with: no adrenodoxin",,rate constant k-1,66.2 ± 2.24 s⁻¹
KIF5B fragment (Mus musculus),"TUBA1A/TUBB microtubules, 20% rhodamine-labelled tubulin (Sus scrofa)",TIRF microscopy,,single-molecule,,landing rate,0.23 µm⁻¹ min⁻¹
AEKKDEGPYRMEHFRWGSPPKD (beta-MSH (Homo sapiens)),"MC4R (Homo sapiens, UniProt P32245)","luciferase reporter, β-arrestin recruitment","peptide, HTLA",,,EC50,8.23 nM
DYNLRB1/DYNLL1/DYNLT1/DYNC1LI2/DYNC1I2/DYNC1H1 dynein-1 complex (Homo sapiens),"HOOK3/KASH5 chimera Hook3 CC, KASH5 LIC-BD, HaloTag",pull-down,,,,Ka,< 1.6e+06 M⁻¹
"PPEF1 (Homo sapiens, UniProt O14829)","FGB (Homo sapiens, UniProt P02675)",cross-linking MS,,with: DSSO,,cross-linked residues,K439 to K374
BzATP,"P2X purinoceptor 7 (P2rx7, Rattus norvegicus, UniProt Q64663, R125A)","ion current, agonist, two-electrode voltage clamp",Xenopus oocytes,11.11 µM,,normalized current,0.742 and 0.693 and 0.707
ADCYAP1 PACAP (Homo sapiens),"VIPR2 (Homo sapiens, UniProt P41587)","cAMP accumulation, antagonist",Cos7,"VPAC2, with: PACAP-38",,pA2,4370 nM
"PTPRJ (Mus musculus, UniProt Q64455)",Insr (Mus musculus),proximity ligation,N2a,with: insulin,"baseline: resting WT cells, higher = more PLA signal",PLA signal change,1.4 fold
"SDLACRLLGQSMDESGLPQLTSYDCEVNAPIQGSRNLLQGEELLRALDQVN (HIF1A 776-826 (Homo sapiens, UniProt Q16665); sequence looked up)","Crebbp 340-439 (Mus musculus, UniProt P45481)","competition with CITED2, competitor, fluorescence polarisation",,apparent,,apparent Kd,1100 ± 200 nM
"FGB (Homo sapiens, UniProt P02675)","HECW2 (Homo sapiens, UniProt Q9P2P5)",cross-linking MS,,with: DSSO,,cross-linked residues,K77 to K198
B1,"LGR5 (Homo sapiens, UniProt O75473)",cell viability,"Fc fusion, 293T-LGR5",5 days,,cytotoxic IC50,0.3 nM
"FGA (Homo sapiens, UniProt P02671)","SYP (Homo sapiens, UniProt P08247)",cross-linking MS,,with: DSSO,,cross-linked residues,K440 to K191
ING1 PHD finger (Arabidopsis thaliana),"H3 residues 1-10, K4me1",ITC,,,,molecule per partner,1.15 ± 0.01
caspofungin,,,"adult ICU patients, mITT, serum","dose not given, Follow-up",,alkaline phosphatase,166 U/L
"BRIX1 (Homo sapiens, UniProt Q8TDN6)","EBNA1BP2 (Homo sapiens, UniProt Q99848)",cross-linking MS,cells,with: iqPIR,,cross-linked residues,K276 to K33

# A few entries again:
Substance,tested on,test,system,setting,scale,quantity,value
"FGB (Homo sapiens, UniProt P02675)","HECW2 (Homo sapiens, UniProt Q9P2P5)",cross-linking MS,,with: DSSO,,cross-linked residues,K77 to K198
B1,"LGR5 (Homo sapiens, UniProt O75473)",cell viability,"Fc fusion, 293T-LGR5",5 days,,cytotoxic IC50,0.3 nM
